Assay results collected from several papers.
Each numbered part is a random draw from the data of one study; scales do not carry over between parts.

Series 1
Target: Histone acetyltransferase KAT6A, winged helix 2, GST fusion (KAT6A, Homo sapiens, UniProt Q92794, residues 85-181)
Method: protein binding microarray
Form: double-stranded DNA, one strand shown
Sample: in vitro
Tested at: not given
Notes: 8-mer, flanks averaged, mean of 2 arrays, mostly near background
Relative to: not given
Reading: higher = stronger binding
Quantity: E-score
Residues (chain): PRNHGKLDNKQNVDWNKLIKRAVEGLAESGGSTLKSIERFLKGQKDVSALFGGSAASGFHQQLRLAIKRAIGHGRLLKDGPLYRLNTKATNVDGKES
TCCTGCCA: -0.0124
GGATAACC: -0.0912
CGCAGGTC: 0.0401
GAAACGAC: 0.0222

Series 2
Target: Sal-like protein 4, full length isoform B (SALL4, Homo sapiens, UniProt Q9UJQ4-2, residues 1-616)
Method: universal PBM
Form: double-stranded DNA, one strand shown
Sample: in vitro
Tested at: not given
Notes: 8-mer, flanks averaged, mean of replicates
Reading: higher = stronger binding
Quantity: E-score
CAGTCTCA: -0.0101
AATGAACT: 0.0677
CAGTCAGC: -0.193
AGTACGAT: 0.204
AGGCACCA: -0.158

Series 3
Target: Interferon regulatory factor 5, full length, phosphomimetic (IRF5, Homo sapiens, UniProt Q13568-2, residues 1-514, K96S/S451D/S453D/S456D/S462D)
Method: protein-binding microarray
Form: double-stranded DNA, one strand shown
Sample: in vitro
Tested at: 250 nM
Notes: 60-bp whole probe
Together with: salmon DNA 0.4 mg/ml
Relative to: random background probes
Reading: higher = stronger binding
Quantity: log fluorescence
GCCTAGCACGACGAACTGTGACTGGAGACGTGCTAGGTCTTGATTCGCTTGACGCTGCTG: -0.468 z-score
GCCTAGCACGACGAACTGAGGTATCGAGACGTGCTAGTCTTGATTCGCTTGACGCTGCTG: 0.282 z-score
GCCTAGCACTTAGGTATCGGTTTAGGTTAGTGCTAGGTCTTGATTCGCTTGACGCTGCTG: 8.25 z-score
GCCTAGCACCTCGGGACAGGCACTCTACGGTGCTAGGTCTTGATTCGCTTGACGCTGCTG: -0.652 z-score

Other studies, line by line
PhoQ, residues 284 288 289 292 302 303 TSTLRA — fold induction (PhoP, residues 12 14 15 18 19 STWGI (Escherichia coli, UniProt P23836); Sort-seq, refers to: YFP reporter; E. coli; PhoQ-PhoP variant library, together with: 10 µM Mg2+; relative to: high Mg2+ state, higher = stronger signaling): 3.45

Some of these lines once more (series 2):
CAGTCTCA: -0.0101
CAGTCAGC: -0.193
